# Measured values from different studies.
# Sequence of UniProt Q8NG66 (whole entry, looked up): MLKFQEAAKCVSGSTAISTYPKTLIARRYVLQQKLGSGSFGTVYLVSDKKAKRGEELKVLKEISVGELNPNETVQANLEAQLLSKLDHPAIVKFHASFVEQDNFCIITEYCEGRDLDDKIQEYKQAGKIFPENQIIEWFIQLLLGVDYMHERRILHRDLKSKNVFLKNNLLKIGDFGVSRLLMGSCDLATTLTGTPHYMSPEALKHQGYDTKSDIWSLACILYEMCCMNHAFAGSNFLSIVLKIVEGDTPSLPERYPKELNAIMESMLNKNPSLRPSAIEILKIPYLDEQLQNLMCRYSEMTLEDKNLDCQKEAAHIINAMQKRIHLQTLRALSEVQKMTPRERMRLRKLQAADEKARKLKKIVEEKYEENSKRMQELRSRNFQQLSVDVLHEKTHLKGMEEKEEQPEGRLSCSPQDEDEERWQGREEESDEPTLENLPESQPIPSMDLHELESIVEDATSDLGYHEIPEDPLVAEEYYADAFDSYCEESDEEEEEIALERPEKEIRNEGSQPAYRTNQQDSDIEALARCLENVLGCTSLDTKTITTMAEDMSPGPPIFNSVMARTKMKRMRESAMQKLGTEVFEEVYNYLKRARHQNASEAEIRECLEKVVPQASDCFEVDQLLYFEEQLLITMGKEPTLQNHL
# Sequence of UniProt Q6ZWH5 (whole entry, looked up): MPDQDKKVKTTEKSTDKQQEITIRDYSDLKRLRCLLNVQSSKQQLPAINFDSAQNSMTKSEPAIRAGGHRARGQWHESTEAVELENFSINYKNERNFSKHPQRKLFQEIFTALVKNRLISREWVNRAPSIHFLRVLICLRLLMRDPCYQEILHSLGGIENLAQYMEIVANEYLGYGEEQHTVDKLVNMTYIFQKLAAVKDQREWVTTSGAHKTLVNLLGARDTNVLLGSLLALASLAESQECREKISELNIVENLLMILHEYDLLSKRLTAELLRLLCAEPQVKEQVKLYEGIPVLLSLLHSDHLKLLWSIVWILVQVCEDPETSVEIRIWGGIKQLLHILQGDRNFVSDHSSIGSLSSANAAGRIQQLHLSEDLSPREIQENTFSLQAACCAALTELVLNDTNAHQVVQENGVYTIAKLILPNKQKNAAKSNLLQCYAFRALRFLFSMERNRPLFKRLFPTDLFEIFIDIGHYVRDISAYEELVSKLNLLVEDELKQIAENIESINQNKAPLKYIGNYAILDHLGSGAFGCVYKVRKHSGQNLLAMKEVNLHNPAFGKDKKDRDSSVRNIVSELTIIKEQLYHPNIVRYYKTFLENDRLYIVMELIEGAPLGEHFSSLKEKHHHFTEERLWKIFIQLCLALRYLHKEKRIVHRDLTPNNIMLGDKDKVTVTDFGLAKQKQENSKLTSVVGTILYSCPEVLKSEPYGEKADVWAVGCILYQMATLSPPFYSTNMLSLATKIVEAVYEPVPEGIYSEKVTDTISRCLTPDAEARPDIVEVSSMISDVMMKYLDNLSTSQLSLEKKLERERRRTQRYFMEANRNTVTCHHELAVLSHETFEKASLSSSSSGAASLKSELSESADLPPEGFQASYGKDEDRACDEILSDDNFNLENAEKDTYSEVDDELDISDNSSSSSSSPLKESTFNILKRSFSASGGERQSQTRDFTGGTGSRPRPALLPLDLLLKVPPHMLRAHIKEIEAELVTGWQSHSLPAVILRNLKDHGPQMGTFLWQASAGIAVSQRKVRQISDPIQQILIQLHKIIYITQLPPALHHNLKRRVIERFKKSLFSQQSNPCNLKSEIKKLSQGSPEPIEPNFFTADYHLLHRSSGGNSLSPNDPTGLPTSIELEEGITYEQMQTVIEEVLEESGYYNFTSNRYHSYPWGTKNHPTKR
# Sequence of UniProt Q12852 (whole entry, looked up): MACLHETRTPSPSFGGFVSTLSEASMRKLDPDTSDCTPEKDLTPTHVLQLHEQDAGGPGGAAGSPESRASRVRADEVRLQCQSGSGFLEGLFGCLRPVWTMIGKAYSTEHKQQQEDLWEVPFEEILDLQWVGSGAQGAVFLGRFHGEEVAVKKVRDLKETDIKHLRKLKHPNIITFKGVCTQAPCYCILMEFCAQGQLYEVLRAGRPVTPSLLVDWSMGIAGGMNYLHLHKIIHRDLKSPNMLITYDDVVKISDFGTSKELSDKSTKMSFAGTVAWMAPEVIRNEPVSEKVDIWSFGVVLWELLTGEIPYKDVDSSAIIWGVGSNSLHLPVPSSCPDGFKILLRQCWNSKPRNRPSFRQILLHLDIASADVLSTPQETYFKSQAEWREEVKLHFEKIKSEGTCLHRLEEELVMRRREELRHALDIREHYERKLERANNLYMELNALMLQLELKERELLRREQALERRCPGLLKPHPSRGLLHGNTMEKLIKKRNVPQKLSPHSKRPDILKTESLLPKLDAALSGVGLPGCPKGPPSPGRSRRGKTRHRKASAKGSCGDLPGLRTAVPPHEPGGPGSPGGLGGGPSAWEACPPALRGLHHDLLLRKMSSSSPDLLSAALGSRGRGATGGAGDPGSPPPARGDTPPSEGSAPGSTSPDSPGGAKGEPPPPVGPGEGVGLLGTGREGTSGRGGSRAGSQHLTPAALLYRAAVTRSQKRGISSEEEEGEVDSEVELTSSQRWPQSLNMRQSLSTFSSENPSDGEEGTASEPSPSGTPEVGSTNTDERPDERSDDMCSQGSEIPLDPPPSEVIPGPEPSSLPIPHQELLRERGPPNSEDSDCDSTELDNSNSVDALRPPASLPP
# Sequence of UniProt Q9HAZ1 (whole entry, looked up): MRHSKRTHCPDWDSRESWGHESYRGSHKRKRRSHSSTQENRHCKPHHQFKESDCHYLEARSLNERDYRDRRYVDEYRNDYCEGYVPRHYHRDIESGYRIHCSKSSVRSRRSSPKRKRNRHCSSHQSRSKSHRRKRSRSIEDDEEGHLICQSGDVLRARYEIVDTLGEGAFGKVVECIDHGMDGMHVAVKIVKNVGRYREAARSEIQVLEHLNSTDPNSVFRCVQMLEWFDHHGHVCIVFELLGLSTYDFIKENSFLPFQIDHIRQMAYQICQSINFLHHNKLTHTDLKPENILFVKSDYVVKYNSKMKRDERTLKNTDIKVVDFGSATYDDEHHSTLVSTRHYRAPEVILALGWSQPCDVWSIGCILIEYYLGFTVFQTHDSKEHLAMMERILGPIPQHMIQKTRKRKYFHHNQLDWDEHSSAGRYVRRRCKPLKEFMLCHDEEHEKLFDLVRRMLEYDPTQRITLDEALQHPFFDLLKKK
Structure (SMILES),tested on,test,system,conditions,endpoint,value
CC(C)(C)C(O)(CCc1ccc(Cl)cc1)Cn1cncn1 (stereo not shown),Fusarium graminearum,microbial growth,,200 µg/mL,inhibition,100%
C[N+]1=C2C=C(N)C(=O)c3[nH]cc(c32)CC1,Babesia duncani,"parasite growth, SYBR Green",,"60 h, blood stage",IC50,3400 nM
Cc1nn(C)cc1-c1nc2c(N3CCN(Cc4ccc(Cl)cc4)CC3)c(Cl)cnc2[nH]1,"MAP3K12 (Homo sapiens, UniProt Q12852)","binding, competition with immobilised ligand",,1 µM,remaining binding,81%
Nc1ncc(-c2nc(N3CCOCC3)nc(N3CCOCC3)n2)c(C(F)F)n1,"NEK11 (Homo sapiens, UniProt Q8NG66)","binding, competition with immobilised ligand",,10 µM,remaining binding,89%
COC(CNC1=CC2=NCCc3c[nH]c(c32)C1=O)c1c[nH]c2ccccc12 (stereo not shown),Babesia duncani,"parasite growth, SYBR Green",,"60 h, blood stage",IC50,696 nM
O=C(NNc1cccc(Cl)c1)c1nnc(CC23CC4CC(CC(C4)C2)C3)o1,Pyricularia grisea,microbial growth,,50 µg/mL,inhibition,100%
COc1c(N2CC3CCCNC3C2)c(F)cc2c(=O)c(C(=O)OCc3cnc([N+](=O)[O-])s3)cn(C3CC3)c12 (stereo not shown),Mycobacteroides abscessus,microbial growth,ATCC19977,,MIC,1 µM
COc1ncccc1-c1cnn2ccc(N3CCN(C(=O)OC(C)C)CC3)nc12,"NEK10 (Homo sapiens, UniProt Q6ZWH5)","binding, competition with immobilised ligand",,1 µM,remaining binding,66%
O=C(NCCc1ncc(C(F)(F)F)cc1Cl)c1ccccc1C(F)(F)F,Pyricularia grisea,microbial growth,,50 µg/mL,inhibition,23.7%
[2H]c1c([2H])c([C@]2([2H])CCCN2C(=O)C(C)(C)Oc2ccc3cn[nH]c3c2)c([2H])c([2H])c1C([2H])([2H])[2H],"CLK4 (Homo sapiens, UniProt Q9HAZ1)","binding, competition with immobilised ligand",,1 µM,remaining binding,66%
OC(Cn1cncn1)(Cn1cncn1)c1ccc(F)cc1F,Trichophyton mentagrophytes,"microbial growth, broth dilution",ATCC9533,,MIC,16 µg/mL
NC1=CC2=NCCc3c[nH]c(c32)C1=O,Babesia duncani,"parasite growth, SYBR Green",,"60 h, blood stage",IC50,342 nM
O=C(NNc1cccc(Cl)c1)c1nnc(C23CC4CC(CC(C4)C2)C3)o1,Pyricularia grisea,microbial growth,,50 µg/mL,inhibition,54.8%

# For quick reference, copied from above:
Structure (SMILES),tested on,test,system,conditions,endpoint,value
OC(Cn1cncn1)(Cn1cncn1)c1ccc(F)cc1F,Trichophyton mentagrophytes,"microbial growth, broth dilution",ATCC9533,,MIC,16 µg/mL
CC(C)(C)C(O)(CCc1ccc(Cl)cc1)Cn1cncn1 (stereo not shown),Fusarium graminearum,microbial growth,,200 µg/mL,inhibition,100%
